{"data": "Measurements gathered from unrelated publications", "method": "steady-state kinetics", "B1": "TcC (Trypanosoma cruzi, UniProt Q4DGA3); chain MPREYEFAEKILFTEEEIRTRIMEVAKRIADDYKGKGLRPYVNPLVLISVLKGSFMFTADLCRALSDFNVPVRMEFICVSSYGEGVTSSGQVRMLLDTRHSIEGHHVLIVEDIVDTALTLNYLYHMYFTRRPASLKTVVLLDKREGRRVPFSADYVVANIPNAFVIGYGLDYDDTYRELRDIVVLRPEVYAEREAARQKKQRAIGSADTDRDAKREFHSKY", "B2": "enzyme D382E (Arabidopsis thaliana, UniProt O82390); chain MNARALLCSSNIHSLYTSNRPPEKTSSSRSLRNLKPSPKSLRVWIYPRNRSSVFRVLVRSSDKSESSNSYYVEGDKVSGNNDVVSDSPSSIVLPWWEEFPKRWVIVLLCFSAFLLCNMDRVNMSIAILPMSAEYGWNPATVGLIQSSFFWGYLLTQIAGGIWADTVGGKRVLGFGVIWWSIATILTPVAAKLGLPYLLVVRAFMGVGEGVAMPAMNNILSKWVPVQERSRSLALVYSGMYLGSVTGLAFSPFLIHQFGWPSVFYSFGSLGTVWLTLWLTKAESSPLEDPTLLPEERKLIADNCASKEPVKSIPWRLILSKPPVWALISCHFCHNWGTFILLTWMPTYYHQVLKFNLMESGLLSVFPWMTMAISANAGGWIAETLVSRGFSVTNVRKIMQTIGFLGPAFFLTQLKHIDSPTMAVLCMACSQGTDAFSQSGLYSNHQDIAPRYSGVLLGLSNTAGVLAGVLGTAATGHILQHGSWDDVFTISVGLYLVGTVIWNLFSTGEKIID", "B3": "enzyme (Bacillus pumilus, UniProt A8FFI9); chain EARSIAWSVDEFFKNREGTFVIQEVKEKSPWVYNKKRAKERFAPQSTFKVANALIGLQTGAVRDEYDIKYWDGVKREIDNWNRDHTLGSGMRDSVVWYYQAMARDIGEERMNHWVKAIHYGNKDISGGIDQFWLSSTLRISPIEQVRFLKQLYEETLPFDLKNMRTVKRMMVQEEEKHATLYGKTGSGSDIGWYVGFIKHEHKTYILATNIKGTGIEAKDITYRILKKYHLMEASV", "B4": "Comt (Rattus norvegicus, UniProt P22734); chain MPLAAVSLGLLLLALLLLLRHLGWGLVTIFWFEYVLQPVHNLIMGDTKEQRILRYVQQNAKPGDPQSVLEAIDTYCTQKEWAMNVGDAKGQIMDAVIREYSPSLVLELGAYCGYSAVRMARLLQPGARLLTMEMNPDYAAITQQMLNFAGLQDKVTILNGASQDLIPQLKKKYDVDTLDMVFLDHWKDRYLPDTLLLEKCGLLRKGTVLLADNVIVPGTPDFLAYVRGSSSFECTHYSSYLEYMKVVDGLEKAIYQGPSSPDKS", "B5": "HCT R356E (Coleus scutellarioides, UniProt E8ZAP2); chain MKIHVRDSTLVRPSAATPAVSLWNSNVDLVVPNFHTPSVYFYRPSGADNFFDTAVMKAALGRALVSFYPMAGRLKRDEDGRVEIDCNAEGVLFVEAESDGTVDDYGDFAPSLELRRLIPAVDYSQGISAYPLLVLQVTFFKCGGVSLGVGMQHHAADGFSGLHFINTWSDMARGLDITLPPFIDRTLLSARDPPQPQFKHVEYQPPPAMKTYEPAETVVSIFKLTKDQLTTLKAKSKEDGNTTTYSSYEMLSGHVWRCTCLARGLPEEQETKLYIATDGRSRLQPQLPPGYFGNVIFTATPLAVAGDLGSKPVWYAASKIHDALARMDNDYLRSALDFLELQPDLKALVRGAHTFECPNLGITSWVRLPIHDADFGWGRPIFMGPGGIAYEGLSFVLPSPTNDGSLSVAISLQAEHMKLFEKLLYQI", "B6": "oxdC (Bacillus subtilis, UniProt O34714); chain MKKQNDIPQPIRGDKGATVKIPRNIERDRQNPDMLVPPETDHGTVSNMKFSFSDTHNRLEKGGYAREVTVRELPISENLASVNMRLKPGAIRELHWHKEAEWAYMIYGSARVTIVDEKGRSFIDDVGEGDLWYFPSGLPHSIQALEEGAEFLLVFDDGSFSENSTFQLTDWLAHTPKEVIAANFGVTKEEISNLPGKEKYIFENQLPGSLKDDIVEGPNGEVPYPFTYRLLEQEPIESEGGKVYIADSTNFKVSKTIASALVTVEPGAMRELHWHPNTHEWQYYISGKARMTVFASDGHARTFNYQAGDVGYVPFAMGHYVENIGDEPLVFLEIFKDDHYADVSLNQWLAMLPETFVQAHLDLGKDFTDVLSKEKHPVVKKKCSK", "B7": "protein (Stereum hirsutum, UniProt P9WEW1); chain MVRSPVSDKFCIPDTLASWPYPRILNPHYAEEKAASAAWTKGFGAFGPKAQDAFDRCDFNLLACLAYPIATPERCRSGCDLMNLFFVIDEHSDTHGEETVRKMKDVVMDAIRNPHKPRPNDEWIGGEIARQFWERAMCYASEISQRRFIDTFDEYLESVVDQAADRDSARIRDIESYINIRRNTIGAKPSFVIMEQGMDIPDNVFENEVFQRLRMATIDMLCLGNDIVSYNIEQARGDDSHNIVRIVMNELDTDVPRAMDWVAQRHTQLEREFFTALSELPTWGEPIDGWVKEYVYGLGNWVRANDQWSFESQRYFGTKGMEIMKSRWLSVLPKVRPAEVGPQLVDQSLL", "B8": "MMP2 (Homo sapiens, UniProt P08253); chain YNFFPRKPKWDKNQITYRIIGYTPDLDPETVDDAFARAFQVWSDVTPLRFSRIHDGEADIMINFGRWEHGDGYPFDGKDGLLAHAFAPGTGVGGDSHFDDDELWTLGEGQVVRVKYGNADGEYCKFPFLFNGKEYNSCTDTGRSDGFLWCSTTYNFEKDGKYGFCPHEALFTMGGNAEGQPCKFPFRFQGTSYDSCTTEGRTDGYRWCGTTEDYDRDKKYGFCPETAMSTVGGNSEGAPCVFPFTFLGNKYESCTSAGRSDGKMWCATTANYDDDRKWGFCPDQGYSLFLVAAHEFGHAMGLEHSQDPGALMAPIYTYTKNFRLSQDDIKGIQELYGASPDIDLGTGPTPTLGPVTPEICKQDIVFDGIAQIRGEIFFFKDRFIWRTVTPRDKPMGPLLVATFWPELPEKIDAVYEAPQEEKAVFFAGNEYWIYSASTLERGYPKPLTSLGLPPDVQRVDAAFNWSKNKKTYIFAGDKFWRYNEVKKKMDPGFPKLIADAWNAIPDNLDAVVDLQGGGHSYFFKGAYYLKLENQSLKSVKFGSIKSDWLGC", "B9": "PduO (Limosilactobacillus reuteri, UniProt Q50EJ2); chain MKIYTKNGDKGQTRIIGKQILYKNDPRVAAYGEVDELNSWVGYTKSLINSHTQVLSNELEEIQQLLFDCGHDLATPADDERHSFKFKQEQPTVWLEEKIDNYTQVVPAVKKFILPGGTQLASALHVARTITRRAERQIVQLMREEQINQDVLIFINRLSDYFFAAARYANYLEQQPDMLYRNSKDVFR", "B10": "UGT88A1 (Arabidopsis thaliana, UniProt Q9LK73); chain MGEEAIVLYPAPPIGHLVSMVELGKTILSKNPSLSIHIILVPPPYQPESTATYISSVSSSFPSITFHHLPAVTPYSSSSTSRHHHESLLLEILCFSNPSVHRTLFSLSRNFNVRAMIIDFFCTAVLDITADFTFPVYFFYTSGAACLAFSFYLPTIDETTPGKNLKDIPTVHIPGVPPMKGSDMPKAVLERDDEVYDVFIMFGKQLSKSSGIIINTFDALENRAIKAITEELCFRNIYPIGPLIVNGRIEDRNDNKAVSCLNWLDSQPEKSVVFLCFGSLGLFSKEQVIEIAVGLEKSGQRFLWVVRNPPELEKTELDLKSLLPEGFLSRTEDKGMVVKSWAPQVPVLNHKAVGGFVTHCGWNSILEAVCAGVPMVAWPLYAEQRFNRVMIVDEIKIAISMNESETGFVSSTEVEKRVQEIIGECPVRERTMAMKNAAELALTETGSSHTALTTLLQSWSPK", "B11": "enzyme F187A (Thermococcus kodakarensis, UniProt Q5JID5); chain MLYVEILGNLPEMARDEVKAMLELGGGEIIGQDYLFLKVDAGEKAFPFLDRLGLAHEYGLLLVEADSVEELLQKAGEVEWPIKGAFKVDTETMANCRHDVLDLPRKLGAVIHAQGFRVNLSKPDTVVRVYCGERLYAGIRLRYFDPKDFEKRKAHHRPFFRPISLHPRVSRALVNLTKATREILDPAMGAGGILIEAGLLGLRVYGVDIRPEMVEGAETNLKHYGVRDYTLKLGDATRLEDLFPDKKFEAVATDPPYGTAATLAGRKRDELYRKALRSIYNVLEDGGRLAIAFPTDFNGKAEAEAVGFRTLGRYYQRVHKSLERYFYVFEK", "B12": "CASK (Homo sapiens, UniProt O14936); chain MADDDVLFEDVYELCEVIGKGPFSVVRRCINRETGQQFAVKIVDVAKFTSSPGLSTEDLKREASICHMLKHPHIVELLETYSSDGMLYMVFEFMDGADLCFEIVKRADAGFVYSEAVASHYMRQILEALRYCHDNNIIHRDVKPHCVLLASKENSAPVKLGGFGVAIQLGESGLVAGGRVGTPHFMAPEVVKREPYGKPVDVWGCGVILFILLSGCLPFYGTKERLFEGIIKGKYKMNPRQWSHISESAKDLVRRMLMLDPAERITVYEALNHPWLKERDRYAYKIHLPETVEQLRKFNARRKLKGAVLAAVSSHKFNSFYGDPPEELPDFSEDPTS", "chain of UniProt Q6PHW0 (whole entry, looked up)": "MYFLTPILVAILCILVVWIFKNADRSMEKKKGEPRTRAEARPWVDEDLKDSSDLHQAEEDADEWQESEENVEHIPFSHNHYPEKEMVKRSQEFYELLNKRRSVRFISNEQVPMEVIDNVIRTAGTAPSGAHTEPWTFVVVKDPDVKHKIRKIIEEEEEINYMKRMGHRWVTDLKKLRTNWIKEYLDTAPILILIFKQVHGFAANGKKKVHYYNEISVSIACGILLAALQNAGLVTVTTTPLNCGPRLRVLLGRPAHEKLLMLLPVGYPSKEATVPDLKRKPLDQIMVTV", "chain of UniProt P31513 (whole entry, looked up)": "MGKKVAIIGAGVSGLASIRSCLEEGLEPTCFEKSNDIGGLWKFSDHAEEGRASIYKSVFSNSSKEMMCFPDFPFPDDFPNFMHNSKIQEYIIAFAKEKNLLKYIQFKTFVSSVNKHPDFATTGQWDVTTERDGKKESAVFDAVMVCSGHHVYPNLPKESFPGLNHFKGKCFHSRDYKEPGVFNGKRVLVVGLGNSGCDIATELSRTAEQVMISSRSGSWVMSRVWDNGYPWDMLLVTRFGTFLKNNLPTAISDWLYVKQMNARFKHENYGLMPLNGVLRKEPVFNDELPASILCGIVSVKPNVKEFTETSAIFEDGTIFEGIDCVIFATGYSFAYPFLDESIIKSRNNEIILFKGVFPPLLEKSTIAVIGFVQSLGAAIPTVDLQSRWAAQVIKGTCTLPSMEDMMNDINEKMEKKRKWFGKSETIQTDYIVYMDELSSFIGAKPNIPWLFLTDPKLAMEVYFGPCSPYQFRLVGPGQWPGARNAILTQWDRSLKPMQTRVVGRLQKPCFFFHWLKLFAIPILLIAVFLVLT"}
{"Substance": "alanine aminopeptidase (Neisseria meningitidis, UniProt Q9JYV4)", "substrate": "NC(=O)Cc1cc(=O)oc2cc(NC(=O)[C@@H](N)CCC(=O)OCc3ccccc3)ccc12", "conditions": "pH 7.5, 37 °C", "Km": "50.6 µM"}
{"Substance": "B1 (TcC)", "substrate": "O=P(O)(O)OC[C@H]1O[C@H](OP(=O)(O)OP(=O)(O)O)[C@H](O)[C@@H]1O", "conditions": "pH 8.3, 37 °C, IMP biosynthesis, apparent, with: Hx 100 µM", "Km": "39 µM"}
{"Substance": "B2 (enzyme D382E)", "substrate": "O=P(O)(O)O", "conditions": "pH 6.5, 25 °C, apparent, not purified", "Km": "46.2 µM"}
{"Substance": "B3 (enzyme)", "substrate": "CC1(C)S[C@@H]2[C@H](NC(=O)[C@H](N)c3ccccc3)C(=O)N2[C@H]1C(=O)O", "conditions": "pH 7", "Km": "27 µM"}
{"Substance": "Ptb (Listeria monocytogenes, UniProt Q8Y7B7)", "substrate": "CCCCC(=O)SCCNC(=O)CCNC(=O)[C@H](O)C(C)(C)COP(=O)(O)OP(=O)(O)OC[C@H]1O[C@@H](n2cnc3c(N)ncnc32)[C@H](O)[C@@H]1OP(=O)(O)O", "conditions": "pH 7.5, 25 °C, apparent", "Km": "161 µM"}
{"Substance": "B4 (Comt)", "substrate": "O=c1oc2c(O)c(O)ccc2cc1-c1nc2ccccc2s1", "test system": "rat liver S9", "conditions": "pH 7.4, 37 °C", "Km": "1.1 µM"}
{"Substance": "B5 (HCT R356E)", "substrate": "NCc1ccc(O)c(O)c1", "conditions": "pH 8, pseudo-first-order, with: p-coumaroyl CoA", "Km": "16300 µM"}
{"Substance": "B6 (oxdC)", "substrate": "O=C(O)C(=O)O", "conditions": "pH 4.2, 25 °C", "Km": "18000 µM"}
{"Substance": "protein (Danio rerio, UniProt A0EXC5)", "substrate": "C[C@H](CCCC(CO)CO)[C@H]1CC[C@H]2[C@@H]3[C@H](O)C[C@H]4C[C@H](O)CC[C@]4(C)[C@H]3C[C@H](O)[C@]12C", "conditions": "pH 7, 28 °C, substrate inhibition, with: PAPS 14 µM", "Km": "7.73 µM"}
{"Substance": "B7 (protein)", "substrate": "CC(C)=CCC/C(C)=C/CC/C(C)=C/CO[P@@](=O)(O)OP(=O)(O)O", "conditions": "pH 8, NaCl 200 mM, with: FPP 1–100 µM", "Km": "1.91 µM"}
{"Substance": "FMO3 (Homo sapiens, UniProt P31513)", "substrate": "CN(C)CCCOc1nn(Cc2ccccc2)c2ccccc12", "conditions": "37 °C, not purified", "Km": "80 µM"}
{"Substance": "B8 (MMP2)", "substrate": "CSCC[C@H](NC(=O)CNC(=O)[C@H](CC(C)C)NC(=O)[C@@H]1CCCN1C(=O)CNC(C)=O)C(=O)N[C@@H](Cc1c[nH]cn1)C(=O)NCC(=O)N[C@@H](CCCCN)C(N)=O", "Km": "3560 µM"}
{"Substance": "B9 (PduO)", "substrate": "Nc1ncnc2c1ncn2[C@@H]1O[C@H](COP(=O)(O)OP(=O)(O)OP(=O)(O)O)[C@@H](O)[C@H]1O", "conditions": "pH 8, 37 °C, anoxic, with: cob(I)alamin", "Km": "2.2 µM"}
{"Substance": "IYD (Homo sapiens, UniProt Q6PHW0)", "substrate": "N#Cc1cc(C[C@H](N)C(=O)O)cc(I)c1O", "conditions": "pH 7.4, 25 °C, with: sodium dithionite 0.5%", "Km": "30 µM"}
{"Substance": "B10 (UGT88A1)", "substrate": "O=c1c(O)c(-c2ccc(O)c(O)c2)oc2cc(O)cc(O)c12", "conditions": "pH 6.8, 37 °C, with: UDP-glucose", "Km": "360 µM"}
{"Substance": "B11 (enzyme F187A)", "substrate": "C[S+](CC[C@H](N)C(=O)O)C[C@H]1O[C@@H](n2cnc3c(N)ncnc32)[C@H](O)[C@@H]1O", "conditions": "pH 7.5, 50 °C, apparent", "Km": "23 µM"}
{"Substance": "B12 (CASK)", "substrate": "Nc1ncnc2c1ncn2[C@@H]1O[C@H](COP(=O)(O)OP(=O)(O)OP(=O)(O)O)[C@@H](O)[C@H]1O", "conditions": "pH 7.4, 30 °C, NaCl 100 mM, no added metal", "Km": "1640 µM"}
{"note": "For quick reference, copied from above:"}
{"Substance": "B2 (enzyme D382E)", "substrate": "O=P(O)(O)O", "conditions": "pH 6.5, 25 °C, apparent, not purified", "Km": "46.2 µM"}
{"Substance": "B3 (enzyme)", "substrate": "CC1(C)S[C@@H]2[C@H](NC(=O)[C@H](N)c3ccccc3)C(=O)N2[C@H]1C(=O)O", "conditions": "pH 7", "Km": "27 µM"}
